Measurements pooled from the literature.
Compare with care: the assays were run in different laboratories. Numbers after ± are the reported error.
RIGI: RIGI 2-925 (Homo sapiens, UniProt O95786)
UniProt O95786, sequence (whole entry, looked up): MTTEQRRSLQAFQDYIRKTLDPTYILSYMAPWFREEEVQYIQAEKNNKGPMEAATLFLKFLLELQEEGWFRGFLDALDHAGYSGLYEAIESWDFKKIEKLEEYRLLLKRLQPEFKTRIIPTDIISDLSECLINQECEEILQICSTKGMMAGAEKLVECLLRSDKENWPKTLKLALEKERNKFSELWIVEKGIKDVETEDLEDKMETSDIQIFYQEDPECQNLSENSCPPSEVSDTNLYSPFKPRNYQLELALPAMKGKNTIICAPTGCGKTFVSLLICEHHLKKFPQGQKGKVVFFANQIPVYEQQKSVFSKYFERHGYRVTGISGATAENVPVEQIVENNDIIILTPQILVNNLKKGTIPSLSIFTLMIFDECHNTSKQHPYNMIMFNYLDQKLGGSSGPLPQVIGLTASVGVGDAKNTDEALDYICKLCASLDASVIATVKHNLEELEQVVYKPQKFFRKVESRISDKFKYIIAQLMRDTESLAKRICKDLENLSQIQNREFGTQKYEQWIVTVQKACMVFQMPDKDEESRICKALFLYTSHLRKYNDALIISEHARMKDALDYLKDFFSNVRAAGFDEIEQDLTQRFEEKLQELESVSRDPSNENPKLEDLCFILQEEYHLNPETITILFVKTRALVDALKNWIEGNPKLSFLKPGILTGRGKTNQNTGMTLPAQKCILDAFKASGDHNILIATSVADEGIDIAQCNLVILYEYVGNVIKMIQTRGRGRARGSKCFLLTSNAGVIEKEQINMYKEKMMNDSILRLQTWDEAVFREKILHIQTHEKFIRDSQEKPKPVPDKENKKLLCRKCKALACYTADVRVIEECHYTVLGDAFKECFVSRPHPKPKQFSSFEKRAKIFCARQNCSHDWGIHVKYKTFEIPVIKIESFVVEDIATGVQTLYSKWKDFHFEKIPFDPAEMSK
TFAM: TFAM 43-246 (Homo sapiens, UniProt Q00059)
UniProt Q00059, sequence (whole entry, unmodified, looked up): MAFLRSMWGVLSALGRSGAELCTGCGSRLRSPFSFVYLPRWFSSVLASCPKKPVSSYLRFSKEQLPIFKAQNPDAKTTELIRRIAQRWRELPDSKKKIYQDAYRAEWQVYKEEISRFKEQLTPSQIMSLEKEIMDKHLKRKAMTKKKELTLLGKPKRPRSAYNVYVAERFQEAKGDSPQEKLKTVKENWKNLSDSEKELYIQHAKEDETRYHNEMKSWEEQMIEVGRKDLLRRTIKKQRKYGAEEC
TFAM 43-221 del222-246: TFAM 43-221 del222-246 (Homo sapiens, UniProt Q00059)
T1: NAB3/NRD1 NAB3 191-565; NRD1 1-548 (Saccharomyces cerevisiae); chain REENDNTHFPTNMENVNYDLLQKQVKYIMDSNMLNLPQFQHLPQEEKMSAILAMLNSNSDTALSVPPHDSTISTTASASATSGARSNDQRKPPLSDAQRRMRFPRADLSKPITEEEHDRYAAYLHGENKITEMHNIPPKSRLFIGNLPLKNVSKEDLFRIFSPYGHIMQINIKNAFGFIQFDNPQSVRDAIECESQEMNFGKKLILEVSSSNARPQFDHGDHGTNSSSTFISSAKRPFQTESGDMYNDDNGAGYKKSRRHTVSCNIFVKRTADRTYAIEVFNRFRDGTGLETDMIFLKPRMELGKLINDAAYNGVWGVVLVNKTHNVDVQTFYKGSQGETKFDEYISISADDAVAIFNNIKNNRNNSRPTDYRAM; chain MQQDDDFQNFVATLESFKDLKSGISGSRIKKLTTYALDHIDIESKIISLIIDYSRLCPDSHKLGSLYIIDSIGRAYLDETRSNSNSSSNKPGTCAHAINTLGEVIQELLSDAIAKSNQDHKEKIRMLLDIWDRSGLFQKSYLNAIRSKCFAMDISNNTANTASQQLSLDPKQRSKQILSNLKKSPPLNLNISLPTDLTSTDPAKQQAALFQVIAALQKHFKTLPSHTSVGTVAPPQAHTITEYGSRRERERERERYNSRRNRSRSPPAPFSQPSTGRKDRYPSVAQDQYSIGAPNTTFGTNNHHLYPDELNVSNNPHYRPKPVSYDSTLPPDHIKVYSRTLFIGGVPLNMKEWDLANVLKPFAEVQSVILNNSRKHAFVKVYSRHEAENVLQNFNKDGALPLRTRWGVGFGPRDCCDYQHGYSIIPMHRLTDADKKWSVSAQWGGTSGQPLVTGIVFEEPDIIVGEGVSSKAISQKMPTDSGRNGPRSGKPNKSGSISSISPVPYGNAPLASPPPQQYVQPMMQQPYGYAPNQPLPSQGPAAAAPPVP
UniProt Q9ES57, sequence (whole entry, looked up): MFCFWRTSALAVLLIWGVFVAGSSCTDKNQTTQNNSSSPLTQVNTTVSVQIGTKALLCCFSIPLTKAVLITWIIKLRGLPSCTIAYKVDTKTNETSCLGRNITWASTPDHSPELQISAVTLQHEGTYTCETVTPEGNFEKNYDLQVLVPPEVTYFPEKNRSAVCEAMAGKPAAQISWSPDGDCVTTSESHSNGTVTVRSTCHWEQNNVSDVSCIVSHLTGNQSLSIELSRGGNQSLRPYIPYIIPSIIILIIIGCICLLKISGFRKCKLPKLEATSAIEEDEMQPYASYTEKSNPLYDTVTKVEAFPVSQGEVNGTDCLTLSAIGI
UniProt O00411, sequence (whole entry, looked up): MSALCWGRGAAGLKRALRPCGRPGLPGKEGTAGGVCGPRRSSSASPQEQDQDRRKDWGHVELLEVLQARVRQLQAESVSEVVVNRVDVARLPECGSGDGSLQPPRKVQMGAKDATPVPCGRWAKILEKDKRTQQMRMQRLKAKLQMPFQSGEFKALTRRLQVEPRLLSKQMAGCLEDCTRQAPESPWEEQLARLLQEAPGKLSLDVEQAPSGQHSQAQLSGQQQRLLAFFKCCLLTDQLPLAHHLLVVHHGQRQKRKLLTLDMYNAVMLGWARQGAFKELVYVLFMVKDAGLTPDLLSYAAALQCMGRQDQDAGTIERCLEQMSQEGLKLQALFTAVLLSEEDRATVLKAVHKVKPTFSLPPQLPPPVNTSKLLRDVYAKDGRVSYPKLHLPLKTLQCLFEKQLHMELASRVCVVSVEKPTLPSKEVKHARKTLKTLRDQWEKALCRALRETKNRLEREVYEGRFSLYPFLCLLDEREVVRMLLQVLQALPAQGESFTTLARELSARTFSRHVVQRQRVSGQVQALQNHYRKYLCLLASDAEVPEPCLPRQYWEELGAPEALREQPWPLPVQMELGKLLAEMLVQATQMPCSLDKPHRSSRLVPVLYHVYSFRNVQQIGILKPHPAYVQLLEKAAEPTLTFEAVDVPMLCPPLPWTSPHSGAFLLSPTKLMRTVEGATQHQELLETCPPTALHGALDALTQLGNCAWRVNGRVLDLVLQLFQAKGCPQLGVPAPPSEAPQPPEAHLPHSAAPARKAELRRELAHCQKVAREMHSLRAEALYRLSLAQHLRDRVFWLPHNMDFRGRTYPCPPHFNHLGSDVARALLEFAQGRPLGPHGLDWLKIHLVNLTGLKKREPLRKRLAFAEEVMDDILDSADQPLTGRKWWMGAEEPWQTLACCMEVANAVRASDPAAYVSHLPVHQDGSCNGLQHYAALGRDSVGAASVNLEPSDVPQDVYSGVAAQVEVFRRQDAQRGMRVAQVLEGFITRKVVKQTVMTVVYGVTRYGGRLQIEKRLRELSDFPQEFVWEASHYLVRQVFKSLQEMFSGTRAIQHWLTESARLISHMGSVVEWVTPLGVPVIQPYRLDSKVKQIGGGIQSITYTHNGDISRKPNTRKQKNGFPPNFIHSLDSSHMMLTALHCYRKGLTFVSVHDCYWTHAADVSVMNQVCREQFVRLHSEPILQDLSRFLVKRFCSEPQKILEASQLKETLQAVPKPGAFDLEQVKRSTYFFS
UniProt P35222, sequence (whole entry, looked up): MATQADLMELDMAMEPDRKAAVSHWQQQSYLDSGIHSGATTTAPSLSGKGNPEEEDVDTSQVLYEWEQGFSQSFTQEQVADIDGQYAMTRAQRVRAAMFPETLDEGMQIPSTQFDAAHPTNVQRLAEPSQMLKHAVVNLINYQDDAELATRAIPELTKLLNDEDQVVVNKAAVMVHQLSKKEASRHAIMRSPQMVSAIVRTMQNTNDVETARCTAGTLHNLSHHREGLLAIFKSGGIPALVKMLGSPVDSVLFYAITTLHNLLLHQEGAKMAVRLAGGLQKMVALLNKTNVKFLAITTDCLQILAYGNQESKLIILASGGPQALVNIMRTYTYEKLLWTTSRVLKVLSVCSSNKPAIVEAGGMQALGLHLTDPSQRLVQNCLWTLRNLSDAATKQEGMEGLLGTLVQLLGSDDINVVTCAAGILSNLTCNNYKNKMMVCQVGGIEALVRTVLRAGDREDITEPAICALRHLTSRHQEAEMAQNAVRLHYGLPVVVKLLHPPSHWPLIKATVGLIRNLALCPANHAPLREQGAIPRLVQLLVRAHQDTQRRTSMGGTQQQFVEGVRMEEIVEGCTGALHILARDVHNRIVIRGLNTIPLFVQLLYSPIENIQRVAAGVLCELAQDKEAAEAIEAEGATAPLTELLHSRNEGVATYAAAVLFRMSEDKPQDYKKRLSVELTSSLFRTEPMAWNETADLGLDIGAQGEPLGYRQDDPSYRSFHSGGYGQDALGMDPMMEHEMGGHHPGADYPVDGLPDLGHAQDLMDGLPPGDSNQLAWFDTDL
UniProt Q57977, sequence (whole entry, looked up): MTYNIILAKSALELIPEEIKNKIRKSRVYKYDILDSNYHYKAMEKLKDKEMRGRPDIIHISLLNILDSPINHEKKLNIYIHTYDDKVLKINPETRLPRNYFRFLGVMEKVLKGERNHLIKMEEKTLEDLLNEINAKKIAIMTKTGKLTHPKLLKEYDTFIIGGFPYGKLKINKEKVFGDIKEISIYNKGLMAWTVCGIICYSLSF

Sequence | target | test | test system | conditions | Kd [nM]
GGACGUACGUUUCGACGUACGUCC (structured RNA; 5'-triphosphate, hairpin, 10 bp) | RIGI | MST | folded RNA | with: ADP-AlFx | 3.5 ± 2.4
GGGACGCGUGGUACCAGGCCGAUCUAUGGACGCUAUAGGCACACCGGAUACUUUAACGAUUGGCUAAGCUUCCGCGGGGAUC (structured RNA; stem-loops, bulges, tri-bridged) | CTNNB1 1-781 (Homo sapiens, UniProt P35222) | SPR | folded RNA | – | 25.6
UUUUUUUU (ssRNA) | nep1 1-205 (Methanocaldococcus jannaschii, UniProt Q57977) | fluorescence quenching | RNA | – | 25600 ± 5100
TAACAGTCACCCCCCAACTAAC (dsDNA) | TFAM | EMSA | double-stranded DNA, one strand shown | apparent | 9.2 ± 0.98
ACACCGCTGCTAACCCCATACCCCG (dsDNA; 25 bp duplex) | TFAM 43-221 del222-246 | FRET | double-stranded DNA, one strand shown | apparent, cooperative Hill model | 7.9 ± 0.8
GACGATAGCGGTGACGGCACAGACGGACGTGACATGCTTGACCAACTCGCCGTATGCCGCTTCCGTCCGTCGCTC (ssDNA) | Cd200r1 26-238 (Mus musculus, UniProt Q9ES57) | nitrocellulose filter binding | single-stranded DNA | with: Mg2+ 1 mM | 390 ± 86
TGTGTTAGTTGGGGGGTGACTGTTAAAAGTGCATACCGCCAAAAGATAAAA (dsDNA) | POLRMT 43-1230 (Homo sapiens, UniProt O00411) | fluorescence anisotropy | double-stranded DNA, one strand shown | Hill fit | 10.5
AGCAGGAGCAGGAACAGGATGAACA (dsDNA; 25 bp duplex) | TFAM | FRET | double-stranded DNA, one strand shown | apparent, cooperative Hill model | 7.4 ± 0.6
GGACGUACGUUUCGACGUACGUCC (structured RNA; 5'-OH, hairpin, 10 bp) | RIGI | MST | folded RNA | no nucleotide | 5.5 ± 2.4
CACACACACACA (ssDNA) | Tardbp 101-265 (Mus musculus, UniProt Q921F2) | filter binding | single-stranded DNA | – | 382
GTGTTAGTTGGGGGGTGACTGTTAA (dsDNA; 25 bp duplex) | TFAM 43-221 del222-246 | FRET | double-stranded DNA, one strand shown | apparent, cooperative Hill model | 9.8 ± 0.8
CCCCGUAGAAAAUCUUAGUAAUCCUUCUUACAUUG (ssRNA) | T1, NAB3/NRD1 NAB3 191-565; NRD1 1-548 (Saccharomyces cerevisiae) | fluorescence anisotropy | RNA | – | 2.4 ± 0.3
RNA 1 GCAUGCGACCUCUGUUUGA / RNA 2 UCAAACAGAGGUCGCAUGC (dsRNA; 5'-OH, duplex, 19 bp) | RIGI | MST | double-stranded RNA | no nucleotide | 210 ± 76
